Assay results pooled from the literature.
Every numbered part comes from another study and shows a few of its results, in no order.
Sequence of UniProt Q99755 (whole entry, looked up): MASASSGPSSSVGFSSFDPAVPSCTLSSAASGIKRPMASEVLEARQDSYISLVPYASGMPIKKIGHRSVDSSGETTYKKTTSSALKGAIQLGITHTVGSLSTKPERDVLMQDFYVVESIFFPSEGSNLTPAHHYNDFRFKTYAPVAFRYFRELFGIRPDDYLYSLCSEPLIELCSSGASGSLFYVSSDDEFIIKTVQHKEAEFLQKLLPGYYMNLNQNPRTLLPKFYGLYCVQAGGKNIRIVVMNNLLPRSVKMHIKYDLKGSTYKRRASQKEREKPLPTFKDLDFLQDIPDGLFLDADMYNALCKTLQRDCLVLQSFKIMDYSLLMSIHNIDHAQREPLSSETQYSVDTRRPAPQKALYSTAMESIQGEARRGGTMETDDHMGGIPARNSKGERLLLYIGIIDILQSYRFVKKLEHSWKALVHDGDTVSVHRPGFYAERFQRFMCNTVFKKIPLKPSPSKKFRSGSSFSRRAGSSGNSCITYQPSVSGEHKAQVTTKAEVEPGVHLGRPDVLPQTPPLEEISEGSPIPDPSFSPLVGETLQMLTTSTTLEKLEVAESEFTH
Sequence of UniProt P54753 (whole entry, looked up): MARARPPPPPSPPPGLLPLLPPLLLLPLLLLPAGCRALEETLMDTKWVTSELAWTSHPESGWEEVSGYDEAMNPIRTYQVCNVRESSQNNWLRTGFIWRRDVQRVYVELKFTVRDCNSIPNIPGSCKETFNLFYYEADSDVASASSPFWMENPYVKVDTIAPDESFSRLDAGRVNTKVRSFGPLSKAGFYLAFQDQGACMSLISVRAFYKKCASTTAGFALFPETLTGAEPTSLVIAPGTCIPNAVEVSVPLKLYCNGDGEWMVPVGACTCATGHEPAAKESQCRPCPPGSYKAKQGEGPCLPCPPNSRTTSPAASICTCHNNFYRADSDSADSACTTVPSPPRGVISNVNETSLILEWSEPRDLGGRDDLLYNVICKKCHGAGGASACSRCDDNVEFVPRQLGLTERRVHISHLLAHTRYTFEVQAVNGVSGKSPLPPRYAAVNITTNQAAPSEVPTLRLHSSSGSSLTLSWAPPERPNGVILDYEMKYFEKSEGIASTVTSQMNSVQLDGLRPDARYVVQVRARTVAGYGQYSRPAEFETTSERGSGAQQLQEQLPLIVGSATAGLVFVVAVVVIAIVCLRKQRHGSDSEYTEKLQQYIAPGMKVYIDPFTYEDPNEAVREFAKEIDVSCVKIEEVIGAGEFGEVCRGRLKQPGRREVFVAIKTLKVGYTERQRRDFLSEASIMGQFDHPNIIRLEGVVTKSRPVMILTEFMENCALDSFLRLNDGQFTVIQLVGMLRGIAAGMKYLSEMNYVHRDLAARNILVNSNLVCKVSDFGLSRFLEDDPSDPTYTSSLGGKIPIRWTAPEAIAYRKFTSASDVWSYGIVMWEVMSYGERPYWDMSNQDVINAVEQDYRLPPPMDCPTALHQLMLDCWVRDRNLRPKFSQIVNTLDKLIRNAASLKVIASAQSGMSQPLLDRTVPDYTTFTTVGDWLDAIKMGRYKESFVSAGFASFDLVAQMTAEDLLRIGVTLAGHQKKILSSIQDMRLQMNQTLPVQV
Sequence of UniProt O60331 (whole entry, looked up): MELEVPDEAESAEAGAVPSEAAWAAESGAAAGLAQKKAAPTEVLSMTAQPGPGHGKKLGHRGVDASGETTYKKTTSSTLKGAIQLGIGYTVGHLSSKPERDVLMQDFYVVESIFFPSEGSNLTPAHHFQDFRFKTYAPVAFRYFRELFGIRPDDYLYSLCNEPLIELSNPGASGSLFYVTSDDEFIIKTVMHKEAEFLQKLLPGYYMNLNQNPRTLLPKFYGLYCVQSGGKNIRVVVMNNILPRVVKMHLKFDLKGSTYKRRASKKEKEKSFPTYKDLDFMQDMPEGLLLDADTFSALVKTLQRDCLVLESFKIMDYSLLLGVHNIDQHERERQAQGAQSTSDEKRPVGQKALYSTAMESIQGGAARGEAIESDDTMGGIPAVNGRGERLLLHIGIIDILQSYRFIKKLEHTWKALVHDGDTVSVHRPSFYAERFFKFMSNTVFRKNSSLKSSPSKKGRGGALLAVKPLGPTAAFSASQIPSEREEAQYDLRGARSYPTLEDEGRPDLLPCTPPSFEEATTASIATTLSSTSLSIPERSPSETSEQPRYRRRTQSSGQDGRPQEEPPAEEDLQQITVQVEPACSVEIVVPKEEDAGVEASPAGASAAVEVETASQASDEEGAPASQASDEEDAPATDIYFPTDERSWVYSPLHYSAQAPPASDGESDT
Sequence of UniProt Q96GD4 (whole entry, looked up): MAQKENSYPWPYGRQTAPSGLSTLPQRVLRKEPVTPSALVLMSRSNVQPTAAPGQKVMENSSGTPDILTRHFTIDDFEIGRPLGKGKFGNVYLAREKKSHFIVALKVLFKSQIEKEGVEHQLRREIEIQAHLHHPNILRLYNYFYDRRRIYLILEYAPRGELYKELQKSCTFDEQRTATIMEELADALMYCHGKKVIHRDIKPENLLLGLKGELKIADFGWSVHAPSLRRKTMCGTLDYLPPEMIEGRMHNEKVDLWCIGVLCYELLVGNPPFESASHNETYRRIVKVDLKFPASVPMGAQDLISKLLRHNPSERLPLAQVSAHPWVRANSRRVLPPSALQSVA
Sequence of UniProt Q8N752 (whole entry, looked up): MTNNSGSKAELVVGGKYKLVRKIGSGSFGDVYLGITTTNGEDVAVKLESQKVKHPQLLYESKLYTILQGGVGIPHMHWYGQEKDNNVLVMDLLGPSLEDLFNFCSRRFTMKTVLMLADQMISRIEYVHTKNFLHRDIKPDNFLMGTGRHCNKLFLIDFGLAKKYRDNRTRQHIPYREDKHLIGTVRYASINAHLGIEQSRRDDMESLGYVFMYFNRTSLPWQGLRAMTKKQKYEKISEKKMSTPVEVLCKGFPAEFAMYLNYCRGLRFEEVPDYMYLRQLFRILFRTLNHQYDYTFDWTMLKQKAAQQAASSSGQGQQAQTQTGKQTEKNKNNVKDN

Study 1
Structure (SMILES): CNCc1ccccc1-c1csc([C@H](C)Nc2nc(C)nc3cc(OC)c(OC)cc23)c1
Observed: cell-free assay
Technique: competition with immobilised ligand
Tested at: 1 µM
Quantity: remaining binding
EPHB3 (Homo sapiens, UniProt P54753): 100%
CSF1R (Homo sapiens, UniProt P07333): 91%
HIPK2 (Homo sapiens, UniProt Q9H2X6): 76%
Aurora kinase B (AURKB, Homo sapiens, UniProt Q96GD4): 99%
HIPK3 (Homo sapiens, UniProt Q9H422): 97%
CSNK1A1L (Homo sapiens, UniProt Q8N752): 100%
PIP5K1A (Homo sapiens, UniProt Q99755): 92%
MAPK12 (Homo sapiens, UniProt P53778): 100%
PIP5K1C (Homo sapiens, UniProt O60331): 100%

Study 2
Target: Fragile X messenger ribonucleoprotein 1, C-terminal low-complexity region (Fmr1, Mus musculus, UniProt P35922)
Technique: RNA Bind-n-Seq
Form: RNA
Medium: in vitro
Tested at: 200 nM
Notes: whole 134-nt RNA, ends assumed
With: 150 mM KCl
Relative to: input library
Direction: higher = stronger binding
Quantity: log2 enrichment
All sequences stand within: GGGAGUUCUACAGUCCGACGAUC … UGGAAUUCUCGGGUGUCAAGG
AAAAUAAGCCUAAGAAAGAAUUAAUUAAAGUUCUGAUUCAGAGGGGAUAUGAUUCGGAUCCUGUGAAGGCCUGGAAAGAAGCCCAGCAAA: -0.28
GCAGGAAGUAAAAACAAAUGGAAAUGCUUCGGAUAGUGGCAGGGGUGGGGGUUGCUAAGGAAAGGGUGGGAUGGGAGUGGGUAACGAGUU: 0.225
ACCAUGCAGGUGGGCAUCUUUGGGAAGUGGGGCAAGGGGGGGAUAGGGAGGGGGGUAACACUUUGGGAACAGGUGGCCCCAGGUCGUUUC: 0.759
UGUGCUACACAUCGUAUGUACCGAAUCGGGGCCCCCCCGGGCCCCCCCGGGGCCCCCCCGGGGAAAGUAUUAUGUUACGCCGUUCGGAUC: -1.4
CCUCAAGUCCUGUGCUACACAUCGUAUGUACCGAAUCGGGAGGAGGGGAGGGAAAGUAUUAUGUUACGCCGUUCGGAUCUGCACUUCCAG: 1.32
AGUCCUGUGCUACACAUCGUAUGUACCGAAUCGGUUUUGGGGUUUUGGGGUUUUGGGGAAAGUAUUAUGUUACGCCGUUCGGAUCUGCAC: 0.121
ACCAUGCAGGUGGGCAUCUUUGGGAAGUGGGGCAAGGGGGCGAUAGGGAGGGGGGUAACACUUUGGGAACAGGUGGUCCCAGGUCGUUUC: 0.783
CACACACAACACGCACCCACACAGACACAGAGGGAAGGGGUUGGGAUGGGGACAGGGUGCACAGCAGGGCGGGGUAGGACCCCAGCCCCU: 1.32

Study 3
Target: Serine/threonine-protein kinase 10 (STK10, Homo sapiens, UniProt O94804)
Sequence of UniProt O94804 (whole entry, looked up): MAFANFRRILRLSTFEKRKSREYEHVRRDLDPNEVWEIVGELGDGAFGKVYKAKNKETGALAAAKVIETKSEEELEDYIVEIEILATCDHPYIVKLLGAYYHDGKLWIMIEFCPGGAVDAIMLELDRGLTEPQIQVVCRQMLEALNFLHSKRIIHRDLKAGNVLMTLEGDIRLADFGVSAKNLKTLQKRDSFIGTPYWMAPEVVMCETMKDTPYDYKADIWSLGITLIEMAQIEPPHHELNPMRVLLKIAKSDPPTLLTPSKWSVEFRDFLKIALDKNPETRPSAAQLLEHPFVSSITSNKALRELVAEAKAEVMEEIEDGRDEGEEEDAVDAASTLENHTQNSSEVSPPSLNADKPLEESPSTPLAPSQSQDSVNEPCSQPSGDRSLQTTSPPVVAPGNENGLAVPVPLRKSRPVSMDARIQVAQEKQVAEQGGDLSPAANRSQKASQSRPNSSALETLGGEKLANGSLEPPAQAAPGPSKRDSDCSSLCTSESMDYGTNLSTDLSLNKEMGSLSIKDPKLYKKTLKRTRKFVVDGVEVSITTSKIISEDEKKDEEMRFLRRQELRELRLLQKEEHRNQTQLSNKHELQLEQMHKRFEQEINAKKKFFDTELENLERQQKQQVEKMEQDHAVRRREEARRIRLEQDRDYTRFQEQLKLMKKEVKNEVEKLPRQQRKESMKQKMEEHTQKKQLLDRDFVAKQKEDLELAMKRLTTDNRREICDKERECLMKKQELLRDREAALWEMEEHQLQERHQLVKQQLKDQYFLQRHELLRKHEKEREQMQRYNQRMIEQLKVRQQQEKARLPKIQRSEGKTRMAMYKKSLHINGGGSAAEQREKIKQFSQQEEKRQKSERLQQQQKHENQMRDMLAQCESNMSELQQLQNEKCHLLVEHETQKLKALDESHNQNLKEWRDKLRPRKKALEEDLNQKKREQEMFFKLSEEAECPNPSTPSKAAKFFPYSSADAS
Observed: enzyme activity
Action: inhibitor
Tested at: 0.5 µM
Relative to: control
Quantity: remaining activity
COc1ccc(C(=O)Nc2sc3c(c2C(N)=O)CCCC3)cc1OC: 93.9%
CN(C)c1ccc(C=C2C(=O)Nc3ccccc32)cc1: 95.4%
O=C(O)c1ccc2c3c1cccc3c(=O)n1c3ccccc3nc21: 88.6%
NCCNc1ncc(C(N)=O)c(Nc2cccc(C(F)(F)F)c2)n1: 74.9%
Cc1cccc(-c2[nH]c(C(C)(C)C)nc2-c2ccc3c(c2)OCO3)n1: 94.5%
O=C(CCCc1ccc(-c2ccccc2F)cc1)Nc1ccc(O)cc1: 95.3%
Cc1nc(-c2ccccc2)c(-c2ccncc2)o1: 96.9%
CC(C)[C@H](CO)Nc1nc(Nc2cc(N)cc(Cl)c2)c2ncn(C(C)C)c2n1: 55.6%
N#CC(C#N)=C(N)/C(C#N)=C/c1ccc(O)cc1: 92.4%
COc1ccc(OC)c2c(=S)c3ccccc3[nH]c12: 93.6%
COc1cc2ncnc(Nc3ccc(F)c(Cl)c3)c2cc1OCCCN1CCOCC1: 38.6%
Nc1ncnc2n[nH]c(Nc3ccc(F)cc3)c12: 70.5%
Cn1sc(=O)n(Cc2ccccc2)c1=O: 98.1%
O=C1NC(=O)C(c2cn(CCCO)c3ncccc23)=C1c1cnccn1: 104%
Cn1c2ccccc2c2c3c(c4c5ccccc5n(CCC#N)c4c21)CNC3=O: 20.1%

Study 4
Target: Sal-like protein 4, full length isoform A (SALL4, Homo sapiens, UniProt Q9UJQ4, residues 1-1053)
Sequence of UniProt Q9UJQ4 (whole entry, looked up): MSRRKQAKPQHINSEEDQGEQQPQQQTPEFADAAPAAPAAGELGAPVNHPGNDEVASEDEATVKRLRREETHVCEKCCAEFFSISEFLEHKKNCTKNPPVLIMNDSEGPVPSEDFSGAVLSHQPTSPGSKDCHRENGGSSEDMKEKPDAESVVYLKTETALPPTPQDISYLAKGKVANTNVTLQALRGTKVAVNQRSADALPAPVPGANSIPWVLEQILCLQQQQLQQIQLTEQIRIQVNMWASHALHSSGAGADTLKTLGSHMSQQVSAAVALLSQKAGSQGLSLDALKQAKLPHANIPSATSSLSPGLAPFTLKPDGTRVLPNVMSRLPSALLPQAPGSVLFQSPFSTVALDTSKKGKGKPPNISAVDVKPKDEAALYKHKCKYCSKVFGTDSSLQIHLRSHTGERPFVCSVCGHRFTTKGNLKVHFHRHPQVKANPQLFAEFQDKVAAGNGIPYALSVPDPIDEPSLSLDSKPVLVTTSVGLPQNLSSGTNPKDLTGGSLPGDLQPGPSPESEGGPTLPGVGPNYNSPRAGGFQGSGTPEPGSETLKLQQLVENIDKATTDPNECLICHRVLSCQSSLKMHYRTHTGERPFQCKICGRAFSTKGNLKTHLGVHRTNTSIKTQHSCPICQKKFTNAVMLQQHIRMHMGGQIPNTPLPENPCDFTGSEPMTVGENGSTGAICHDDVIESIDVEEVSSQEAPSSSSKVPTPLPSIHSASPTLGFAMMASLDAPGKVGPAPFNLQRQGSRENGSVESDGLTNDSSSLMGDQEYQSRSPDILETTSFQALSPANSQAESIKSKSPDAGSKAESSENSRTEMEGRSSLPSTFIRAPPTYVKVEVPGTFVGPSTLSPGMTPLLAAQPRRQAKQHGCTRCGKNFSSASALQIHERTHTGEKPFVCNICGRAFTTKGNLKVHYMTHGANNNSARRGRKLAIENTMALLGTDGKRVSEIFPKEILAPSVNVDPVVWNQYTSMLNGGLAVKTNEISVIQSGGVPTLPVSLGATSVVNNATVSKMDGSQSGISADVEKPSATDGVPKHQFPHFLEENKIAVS
Technique: universal PBM
Form: double-stranded DNA, one strand shown
Medium: in vitro
Tested at: 600 nM
Notes: 8-mer, flanks averaged, mean of replicates
Direction: higher = stronger binding
Quantity: E-score
CGCCACAG: -0.302
CTGCCCAC: -0.212
AGAGTCAG: -0.149
GTACAGGA: -0.0676
CCAGGGCA: -0.358
AAAAGTGA: 0.258
ACATTTAA: 0.296
CATTGCGG: -0.168

Repeated from above (study 4):
AGAGTCAG: -0.149
GTACAGGA: -0.0676
CCAGGGCA: -0.358
AAAAGTGA: 0.258
ACATTTAA: 0.296
CATTGCGG: -0.168
